{"data": "Measured values pooled from the literature", "note": "A part holds a random share of what one study measured.", "sequence of UniProt Q16832 (whole entry, looked up)": "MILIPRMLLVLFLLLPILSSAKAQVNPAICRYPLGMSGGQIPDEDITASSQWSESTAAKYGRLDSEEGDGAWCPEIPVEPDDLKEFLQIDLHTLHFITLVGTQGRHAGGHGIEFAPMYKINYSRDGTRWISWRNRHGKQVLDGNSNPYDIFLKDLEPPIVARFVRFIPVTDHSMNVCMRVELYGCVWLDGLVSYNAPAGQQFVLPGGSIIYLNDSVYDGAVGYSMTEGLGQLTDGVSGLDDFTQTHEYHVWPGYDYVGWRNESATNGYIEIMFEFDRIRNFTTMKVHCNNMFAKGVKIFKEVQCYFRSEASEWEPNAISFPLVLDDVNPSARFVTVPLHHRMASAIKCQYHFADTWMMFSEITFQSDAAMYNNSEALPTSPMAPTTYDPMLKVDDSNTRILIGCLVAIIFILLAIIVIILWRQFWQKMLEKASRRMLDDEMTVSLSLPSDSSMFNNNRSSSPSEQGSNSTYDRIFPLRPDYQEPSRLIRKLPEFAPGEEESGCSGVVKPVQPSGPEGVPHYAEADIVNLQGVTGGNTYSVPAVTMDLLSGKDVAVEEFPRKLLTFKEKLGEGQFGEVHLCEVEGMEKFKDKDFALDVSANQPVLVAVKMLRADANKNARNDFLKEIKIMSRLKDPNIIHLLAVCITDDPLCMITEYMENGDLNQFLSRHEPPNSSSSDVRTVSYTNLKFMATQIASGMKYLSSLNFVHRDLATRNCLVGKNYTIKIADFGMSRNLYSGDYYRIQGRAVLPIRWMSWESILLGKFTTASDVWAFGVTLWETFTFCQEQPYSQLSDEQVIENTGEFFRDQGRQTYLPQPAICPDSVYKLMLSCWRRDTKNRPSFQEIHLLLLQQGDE", "sequence of UniProt Q9HBY8 (whole entry, looked up)": "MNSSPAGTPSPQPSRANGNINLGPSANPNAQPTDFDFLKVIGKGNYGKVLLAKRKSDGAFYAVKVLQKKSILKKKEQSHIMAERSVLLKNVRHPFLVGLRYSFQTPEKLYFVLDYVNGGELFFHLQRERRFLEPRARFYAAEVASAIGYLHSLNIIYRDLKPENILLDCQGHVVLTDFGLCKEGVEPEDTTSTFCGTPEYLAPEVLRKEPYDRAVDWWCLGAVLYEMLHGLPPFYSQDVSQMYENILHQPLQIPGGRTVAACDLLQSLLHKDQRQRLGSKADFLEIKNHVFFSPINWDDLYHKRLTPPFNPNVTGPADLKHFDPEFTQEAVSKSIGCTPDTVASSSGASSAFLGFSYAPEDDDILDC", "sequence of UniProt P42684 (whole entry, looked up)": "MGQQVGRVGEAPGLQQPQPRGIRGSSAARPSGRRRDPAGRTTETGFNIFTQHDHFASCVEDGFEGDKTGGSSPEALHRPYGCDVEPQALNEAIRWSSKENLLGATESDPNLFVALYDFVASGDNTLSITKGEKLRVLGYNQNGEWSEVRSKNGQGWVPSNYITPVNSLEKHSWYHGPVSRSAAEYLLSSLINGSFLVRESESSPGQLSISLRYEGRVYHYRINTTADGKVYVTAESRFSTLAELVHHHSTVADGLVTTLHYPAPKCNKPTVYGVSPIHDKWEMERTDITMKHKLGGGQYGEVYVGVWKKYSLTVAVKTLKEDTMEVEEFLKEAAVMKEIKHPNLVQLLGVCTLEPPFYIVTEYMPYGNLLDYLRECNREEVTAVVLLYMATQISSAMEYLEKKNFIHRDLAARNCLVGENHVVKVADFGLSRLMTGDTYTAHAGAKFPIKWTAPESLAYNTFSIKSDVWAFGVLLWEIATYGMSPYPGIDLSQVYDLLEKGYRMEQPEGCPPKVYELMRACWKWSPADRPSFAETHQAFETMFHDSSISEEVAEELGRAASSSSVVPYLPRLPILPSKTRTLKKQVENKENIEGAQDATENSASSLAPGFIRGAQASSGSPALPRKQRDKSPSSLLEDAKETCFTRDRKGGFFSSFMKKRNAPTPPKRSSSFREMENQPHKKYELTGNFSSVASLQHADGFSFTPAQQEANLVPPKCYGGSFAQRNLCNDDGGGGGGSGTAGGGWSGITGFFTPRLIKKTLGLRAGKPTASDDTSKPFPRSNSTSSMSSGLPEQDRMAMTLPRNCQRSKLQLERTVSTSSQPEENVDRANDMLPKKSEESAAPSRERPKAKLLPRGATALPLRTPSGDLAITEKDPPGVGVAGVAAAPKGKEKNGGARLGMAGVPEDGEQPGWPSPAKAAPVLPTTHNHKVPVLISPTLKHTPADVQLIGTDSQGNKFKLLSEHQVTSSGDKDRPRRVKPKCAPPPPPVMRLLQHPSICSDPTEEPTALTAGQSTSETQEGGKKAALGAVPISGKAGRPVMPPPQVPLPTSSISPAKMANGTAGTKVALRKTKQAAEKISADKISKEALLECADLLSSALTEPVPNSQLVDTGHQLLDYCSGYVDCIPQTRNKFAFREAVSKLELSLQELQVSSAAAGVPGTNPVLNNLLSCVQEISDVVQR"}
{"data": "Sample 1", "target": "PABPC1L2, full length, GST fusion (mouse, UniProt A0ABA7IW68)", "technique": "RNAcompete", "form": "RNA", "matrix": "in vitro", "tested at": "20 nM", "notes": "7-mer, probes averaged, single round", "baseline": "mean of 7-mers", "direction": "higher = stronger binding", "Target sequence (chain)": "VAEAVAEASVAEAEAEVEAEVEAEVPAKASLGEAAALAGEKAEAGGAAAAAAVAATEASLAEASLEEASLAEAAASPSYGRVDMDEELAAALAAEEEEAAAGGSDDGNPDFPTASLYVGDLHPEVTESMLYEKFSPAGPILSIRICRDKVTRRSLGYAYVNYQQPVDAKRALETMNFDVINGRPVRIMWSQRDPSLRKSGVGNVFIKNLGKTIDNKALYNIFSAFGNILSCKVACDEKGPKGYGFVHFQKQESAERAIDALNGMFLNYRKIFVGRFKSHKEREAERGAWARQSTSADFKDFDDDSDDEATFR"}
{"Strand": "ACACCGG", "7-mer Z-score": 0.0569}
{"Strand": "CAUGAAC", "7-mer Z-score": 0.131}
{"Strand": "GGUCUUU", "7-mer Z-score": -0.267}
{"Strand": "GCAAAAC", "7-mer Z-score": 1.41}
{"Strand": "UGCUCGA", "7-mer Z-score": -0.235}
{"Strand": "AUACGCC", "7-mer Z-score": -0.284}
{"Strand": "GAUUGCG", "7-mer Z-score": -0.0881}
{"Strand": "GCGUCUA", "7-mer Z-score": -0.175}
{"data": "Sample 2", "target": "Insulin-like growth factor 1 receptor (IGF1R, Homo sapiens, UniProt P08069)", "observed": "enzyme activity", "action": "inhibitor", "tested at": "0.5 µM", "baseline": "control", "sequence of UniProt P08069 (whole entry, looked up)": "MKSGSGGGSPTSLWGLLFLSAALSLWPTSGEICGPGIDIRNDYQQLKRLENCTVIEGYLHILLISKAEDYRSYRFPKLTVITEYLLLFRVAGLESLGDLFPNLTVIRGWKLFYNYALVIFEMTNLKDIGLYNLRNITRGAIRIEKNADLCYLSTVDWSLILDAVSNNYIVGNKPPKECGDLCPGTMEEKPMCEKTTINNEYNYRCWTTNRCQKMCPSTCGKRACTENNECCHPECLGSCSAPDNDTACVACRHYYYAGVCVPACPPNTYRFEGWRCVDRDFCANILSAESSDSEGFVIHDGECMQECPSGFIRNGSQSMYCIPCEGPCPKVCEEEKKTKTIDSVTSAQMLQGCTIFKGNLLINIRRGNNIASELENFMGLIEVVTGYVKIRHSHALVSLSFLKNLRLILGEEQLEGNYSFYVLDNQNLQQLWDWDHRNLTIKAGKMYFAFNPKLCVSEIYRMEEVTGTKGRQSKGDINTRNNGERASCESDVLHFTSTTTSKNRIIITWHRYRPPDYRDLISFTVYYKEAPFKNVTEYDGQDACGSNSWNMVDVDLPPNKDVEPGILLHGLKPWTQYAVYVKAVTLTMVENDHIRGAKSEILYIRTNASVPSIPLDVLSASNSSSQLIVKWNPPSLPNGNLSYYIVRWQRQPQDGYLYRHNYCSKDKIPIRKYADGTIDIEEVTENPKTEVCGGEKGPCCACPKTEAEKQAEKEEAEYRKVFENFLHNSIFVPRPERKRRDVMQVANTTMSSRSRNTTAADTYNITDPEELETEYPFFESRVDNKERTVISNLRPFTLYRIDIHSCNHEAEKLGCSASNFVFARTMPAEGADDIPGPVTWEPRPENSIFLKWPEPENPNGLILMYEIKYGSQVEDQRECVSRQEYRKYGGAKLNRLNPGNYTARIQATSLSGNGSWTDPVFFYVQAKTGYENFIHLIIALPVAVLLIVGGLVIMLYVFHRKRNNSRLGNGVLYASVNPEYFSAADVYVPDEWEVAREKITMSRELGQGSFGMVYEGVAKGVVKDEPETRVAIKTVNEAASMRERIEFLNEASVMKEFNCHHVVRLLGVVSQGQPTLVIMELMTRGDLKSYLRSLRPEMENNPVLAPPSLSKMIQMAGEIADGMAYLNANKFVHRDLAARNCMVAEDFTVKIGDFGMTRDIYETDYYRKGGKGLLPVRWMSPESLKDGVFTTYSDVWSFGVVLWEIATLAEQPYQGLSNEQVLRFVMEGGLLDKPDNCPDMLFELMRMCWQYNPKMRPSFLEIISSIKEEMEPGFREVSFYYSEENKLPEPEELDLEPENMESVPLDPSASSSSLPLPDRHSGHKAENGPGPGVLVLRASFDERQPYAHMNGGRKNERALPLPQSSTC"}
{"Structure (SMILES)": "CCOC(=O)c1c(C)[nH]c(/C=C2\\C(=O)Nc3ccccc32)c1C", "remaining activity [%]": 79.5}
{"Structure (SMILES)": "CNC(=O)c1cc(Oc2ccc(NC(=O)Nc3ccc(Cl)c(C(F)(F)F)c3)cc2)ccn1", "remaining activity [%]": 94.3}
{"Structure (SMILES)": "Cc1nc(-c2ccccc2)c(-c2ccncc2)o1", "remaining activity [%]": 99.9}
{"Structure (SMILES)": "O=C1NC(=O)C(c2cn(CCCn3ccnc3)c3ccccc23)=C1Nc1ccccc1", "remaining activity [%]": 95.3}
{"Structure (SMILES)": "O=C(Nc1cccc(Nc2cc(Nc3cccc(C(F)(F)F)c3)ncn2)c1)C1CC1", "remaining activity [%]": 105}
{"Structure (SMILES)": "COc1cc2ncnc(Nc3ccc(Oc4ccccc4)cc3)c2cc1OC", "remaining activity [%]": 102}
{"Structure (SMILES)": "NCCNc1ncc(C(N)=O)c(Nc2cccc(C(F)(F)F)c2)n1", "remaining activity [%]": 84.1}
{"Structure (SMILES)": "CN(C)c1ccc(C=C2C(=O)Nc3ccccc32)cc1", "remaining activity [%]": 101}
{"Structure (SMILES)": "COc1ccc(CNC(=O)Nc2ncc([N+](=O)[O-])s2)cc1", "remaining activity [%]": 101}
{"Structure (SMILES)": "Nc1ccc2ncnc(NCCc3ccc(Oc4ccccc4)cc3)c2c1", "remaining activity [%]": 99.7}
{"Structure (SMILES)": "O=c1c2ccccc2[nH]c(=S)n1CCN1CCC(=C(c2ccc(F)cc2)c2ccc(F)cc2)CC1", "remaining activity [%]": 105}
{"Structure (SMILES)": "CC(C)[C@H](CO)Nc1nc(Nc2cc(N)cc(Cl)c2)c2ncn(C(C)C)c2n1", "remaining activity [%]": 73}
{"Structure (SMILES)": "COc1cc2ncnc(Nc3ccc(F)c(Cl)c3)c2cc1OCCCN1CCOCC1", "remaining activity [%]": 92.3}
{"Structure (SMILES)": "Nc1[nH]nc2nc3ccccc3nc12", "remaining activity [%]": 97.5}
{"Structure (SMILES)": "COc1cc2nccc(Oc3ccc(NC(=S)NC(=O)c4ccccc4C)cc3)c2cc1OC", "remaining activity [%]": 92.1}
{"data": "Sample 3", "SMILES": "O=C(Nc1cnc(Oc2ccc(F)cc2)nc1)N1CCc2ncccc2[C@@H]1c1ccc(F)cc1", "observed": "cell-free assay", "technique": "competition with immobilised ligand", "tested at": "1 µM"}
{"target": "ABL2 (Homo sapiens, UniProt P42684)", "remaining binding": "78%"}
{"target": "EGFR (Homo sapiens, UniProt P00533, L858R/T790M)", "remaining binding": "70%"}
{"target": "DDR2 (Homo sapiens, UniProt Q16832)", "remaining binding": "100%"}
{"target": "SGK2 (Homo sapiens, UniProt Q9HBY8)", "remaining binding": "79%"}
{"data": "Single results of other studies", "technique": "cross-linking MS"}
{"Molecule": "CCT3 (Homo sapiens, UniProt P49368)", "partner": "CCT8 (Homo sapiens, UniProt P50990)", "setting": "hits only", "endpoint": "interaction screen", "result": "cross-linked"}
{"Molecule": "MAST3 (Homo sapiens, UniProt O60307)", "partner": "USP24 (Homo sapiens, UniProt Q9UPU5)", "test system": "cell fractions", "setting": "with: DMTMM", "endpoint": "cross-linked residues", "result": "K1053 to E1864"}
{"Molecule": "PLXNB2 (Homo sapiens, UniProt O15031)", "partner": "TBCD (Homo sapiens, UniProt Q9BTW9)", "test system": "cell fractions", "setting": "with: DSSO", "endpoint": "cross-linked residues", "result": "T244 to T877"}
{"Molecule": "PSMA2 (Homo sapiens, UniProt P25787)", "partner": "PSMA4 (Homo sapiens, UniProt P25789)", "setting": "hits only", "endpoint": "interaction screen", "result": "cross-linked"}
{"note": "A few entries again (sample 2):"}
{"Structure (SMILES)": "Nc1ccc2ncnc(NCCc3ccc(Oc4ccccc4)cc3)c2c1", "remaining activity [%]": 99.7}
{"Structure (SMILES)": "CN(C)c1ccc(C=C2C(=O)Nc3ccccc32)cc1", "remaining activity [%]": 101}
{"Structure (SMILES)": "COc1cc2ncnc(Nc3ccc(F)c(Cl)c3)c2cc1OCCCN1CCOCC1", "remaining activity [%]": 92.3}
